Values quoted from earlier work as cited in several papers.
± marks the error that the study gave.
Target: acetylcholinesterase

The inhibition of `C[C@H]1CC[C@@H]2[C@@H](C)[C@H]3[C@H](C[C@H]4[C@@H]5CC=C6C[C@@H](O)CC[C@]6(C)[C@H]5CC[C@]34C)N2C1` is reported as 10% (5 µM).
With `CN(C)c1ccc(/C=C/C(=O)c2ccc(OC(=O)N3CCCC3)cc2O)cc1` the IC50 was 4.91 µM (enzyme activity, inhibitor).
For `O=C1/C(=C/c2ccc(F)cc2)CN(C(=O)C2CC3CCCN3C23C(=O)Nc2ccccc23)C/C1=C\c1ccc(F)cc1` (stereo not shown), the IC50 was 2.35 µM (inhibitor).
The IC50 of `O=C(/C=C/c1ccc(OCCN2CCNCC2)cc1)c1ccccc1` is reported as 0.0153 µM (enzyme activity, inhibitor).
With `CCN(CC)CCNC(=O)c1ccc(CN2CCc3ccccc3C2)cc1` the IC50 was over 50 µM (inhibitor).
`O=C(O)COc1ccc(C2CC(c3c[nH]c4ccccc34)=NN2C(=O)c2ccccc2)cc1` (stereo not shown) has an IC50 of 13.8 ± 0.25 µM (inhibitor).
`O=c1c(-c2ccc(O)cc2)coc2cc(O)cc(O)c12` has an IC50 of over 100 µM (enzyme activity).
The IC50 of `Cc1ccccc1NC(=O)CN1CCN(C2=CC(=O)Cc3ccccc32)CC1` is reported as 8.3 ± 0.04 µM (enzyme activity, inhibitor).
`Clc1ccc(-c2nnc(-c3cncc(-c4ccccc4)c3)o2)cc1` has an IC50 of 0.0509 µM (inhibitor).
For `CCOP(=O)(OCC)Oc1cc(C)nc(C(C)C)n1`, the IC30 was 0.04 µM (enzyme activity, inhibitor; thymus tissue; 20 min).

Repeated from above:
`O=c1c(-c2ccc(O)cc2)coc2cc(O)cc(O)c12` has an IC50 of over 100 µM (enzyme activity).
